Literature values, collected from citations in different studies.
Protocols differ between the studies behind these lines. ± marks the error that the study gave.
PSMB1/PSMB5/PSMB3: PSMB1/PSMB5/PSMB3 (Homo sapiens, UniProt P20618+P28074+P49720)
UniProt P28074, sequence (whole entry, looked up): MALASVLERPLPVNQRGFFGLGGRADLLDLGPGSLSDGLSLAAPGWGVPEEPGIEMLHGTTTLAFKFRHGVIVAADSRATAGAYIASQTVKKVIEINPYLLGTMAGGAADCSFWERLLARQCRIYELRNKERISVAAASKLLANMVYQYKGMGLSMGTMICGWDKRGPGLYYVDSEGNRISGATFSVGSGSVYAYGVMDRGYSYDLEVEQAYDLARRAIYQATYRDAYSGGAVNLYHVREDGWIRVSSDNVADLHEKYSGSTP
UniProt P20618, sequence (whole entry, looked up): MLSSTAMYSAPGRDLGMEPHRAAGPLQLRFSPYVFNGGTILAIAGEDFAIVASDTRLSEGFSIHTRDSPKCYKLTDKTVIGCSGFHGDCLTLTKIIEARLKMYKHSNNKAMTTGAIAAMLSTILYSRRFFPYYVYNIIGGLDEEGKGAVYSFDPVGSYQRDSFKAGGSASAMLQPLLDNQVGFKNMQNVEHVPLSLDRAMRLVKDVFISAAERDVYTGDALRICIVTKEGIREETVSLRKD
UniProt P49720, sequence (whole entry, looked up): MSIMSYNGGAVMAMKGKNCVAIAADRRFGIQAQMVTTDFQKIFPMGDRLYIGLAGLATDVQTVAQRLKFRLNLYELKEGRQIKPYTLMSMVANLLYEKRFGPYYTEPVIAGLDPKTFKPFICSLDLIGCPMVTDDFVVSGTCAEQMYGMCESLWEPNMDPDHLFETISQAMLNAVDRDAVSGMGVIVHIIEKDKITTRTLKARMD
RPS6KA3: Ribosomal protein S6 kinase alpha-3 (RPS6KA3, Homo sapiens, UniProt P51812)
UniProt P51812, sequence (whole entry, looked up): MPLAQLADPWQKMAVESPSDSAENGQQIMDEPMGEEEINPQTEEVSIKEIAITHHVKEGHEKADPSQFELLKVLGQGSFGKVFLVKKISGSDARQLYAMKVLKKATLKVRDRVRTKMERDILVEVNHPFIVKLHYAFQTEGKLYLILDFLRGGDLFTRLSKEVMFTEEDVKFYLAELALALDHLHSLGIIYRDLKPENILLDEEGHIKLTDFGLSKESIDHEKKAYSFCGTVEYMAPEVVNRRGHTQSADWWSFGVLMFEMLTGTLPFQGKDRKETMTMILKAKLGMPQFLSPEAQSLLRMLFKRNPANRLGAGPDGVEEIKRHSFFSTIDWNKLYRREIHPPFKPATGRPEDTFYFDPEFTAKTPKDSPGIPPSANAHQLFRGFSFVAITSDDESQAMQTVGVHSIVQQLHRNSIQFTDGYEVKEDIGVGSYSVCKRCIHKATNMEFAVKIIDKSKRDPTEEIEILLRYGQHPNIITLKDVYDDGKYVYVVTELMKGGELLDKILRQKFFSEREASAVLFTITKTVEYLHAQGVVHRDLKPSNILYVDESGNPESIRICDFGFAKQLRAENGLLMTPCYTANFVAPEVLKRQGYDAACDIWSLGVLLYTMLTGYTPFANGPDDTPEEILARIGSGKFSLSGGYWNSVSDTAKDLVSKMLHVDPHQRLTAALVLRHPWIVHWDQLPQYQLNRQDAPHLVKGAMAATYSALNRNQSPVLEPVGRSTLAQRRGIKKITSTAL
CYP2C9: Cytochrome P450 2C9 (CYP2C9, Homo sapiens, UniProt P11712)
UniProt P11712, sequence (whole entry, looked up): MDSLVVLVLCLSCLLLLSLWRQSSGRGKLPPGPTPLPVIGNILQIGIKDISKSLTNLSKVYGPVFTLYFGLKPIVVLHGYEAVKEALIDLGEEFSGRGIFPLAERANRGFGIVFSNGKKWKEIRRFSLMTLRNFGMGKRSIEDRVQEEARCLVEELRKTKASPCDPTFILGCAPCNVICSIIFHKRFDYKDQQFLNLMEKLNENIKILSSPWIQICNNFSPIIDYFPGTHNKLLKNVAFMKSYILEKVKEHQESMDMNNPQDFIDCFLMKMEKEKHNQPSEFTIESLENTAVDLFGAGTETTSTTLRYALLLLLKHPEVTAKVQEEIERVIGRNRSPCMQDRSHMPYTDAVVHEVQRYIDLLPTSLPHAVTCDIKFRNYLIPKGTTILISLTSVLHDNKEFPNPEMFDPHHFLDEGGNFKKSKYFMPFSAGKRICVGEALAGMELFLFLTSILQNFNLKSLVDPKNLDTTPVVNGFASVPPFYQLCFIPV
CYP2C8: Cytochrome P450 2C8 (CYP2C8, Homo sapiens, UniProt P10632)
UniProt P10632, sequence (whole entry, looked up): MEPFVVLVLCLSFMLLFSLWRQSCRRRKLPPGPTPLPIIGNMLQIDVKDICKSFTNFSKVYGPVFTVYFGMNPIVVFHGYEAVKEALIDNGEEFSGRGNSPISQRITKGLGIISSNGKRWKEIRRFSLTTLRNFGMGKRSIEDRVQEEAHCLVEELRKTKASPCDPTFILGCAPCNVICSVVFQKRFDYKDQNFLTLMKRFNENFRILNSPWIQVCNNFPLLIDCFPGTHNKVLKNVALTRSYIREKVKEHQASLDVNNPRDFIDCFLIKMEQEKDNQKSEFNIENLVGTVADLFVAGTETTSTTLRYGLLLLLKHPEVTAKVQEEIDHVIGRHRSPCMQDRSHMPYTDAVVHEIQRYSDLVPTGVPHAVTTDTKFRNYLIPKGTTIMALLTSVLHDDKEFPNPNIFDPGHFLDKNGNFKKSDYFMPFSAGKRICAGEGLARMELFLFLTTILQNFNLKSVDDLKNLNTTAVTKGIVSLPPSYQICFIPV
UniProt P11229, sequence (whole entry, looked up): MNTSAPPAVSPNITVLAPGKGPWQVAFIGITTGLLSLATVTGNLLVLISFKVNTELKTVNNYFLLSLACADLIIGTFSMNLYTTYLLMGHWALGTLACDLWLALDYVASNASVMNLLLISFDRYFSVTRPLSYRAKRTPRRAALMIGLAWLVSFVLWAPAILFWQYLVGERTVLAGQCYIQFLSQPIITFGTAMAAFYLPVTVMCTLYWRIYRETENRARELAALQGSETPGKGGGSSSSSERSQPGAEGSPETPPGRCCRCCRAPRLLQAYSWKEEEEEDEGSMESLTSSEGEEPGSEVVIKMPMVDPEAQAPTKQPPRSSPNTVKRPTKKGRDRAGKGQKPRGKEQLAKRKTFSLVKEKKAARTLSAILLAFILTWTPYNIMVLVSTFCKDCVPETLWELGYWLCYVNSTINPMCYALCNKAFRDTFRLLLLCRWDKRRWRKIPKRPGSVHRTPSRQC
UniProt O14757, sequence (whole entry, looked up): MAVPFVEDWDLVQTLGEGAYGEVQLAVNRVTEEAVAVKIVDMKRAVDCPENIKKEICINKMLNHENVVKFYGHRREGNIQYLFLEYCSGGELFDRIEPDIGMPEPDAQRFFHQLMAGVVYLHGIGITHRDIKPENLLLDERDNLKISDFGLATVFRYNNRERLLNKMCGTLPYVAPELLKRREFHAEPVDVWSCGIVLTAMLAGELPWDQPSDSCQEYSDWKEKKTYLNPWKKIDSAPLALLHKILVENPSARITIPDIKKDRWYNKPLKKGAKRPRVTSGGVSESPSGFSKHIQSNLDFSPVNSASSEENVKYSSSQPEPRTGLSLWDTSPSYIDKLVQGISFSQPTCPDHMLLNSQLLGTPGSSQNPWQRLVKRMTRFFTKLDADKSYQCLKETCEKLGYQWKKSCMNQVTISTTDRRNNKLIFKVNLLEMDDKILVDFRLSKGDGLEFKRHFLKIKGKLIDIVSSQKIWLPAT
UniProt Q99640, sequence (whole entry, looked up): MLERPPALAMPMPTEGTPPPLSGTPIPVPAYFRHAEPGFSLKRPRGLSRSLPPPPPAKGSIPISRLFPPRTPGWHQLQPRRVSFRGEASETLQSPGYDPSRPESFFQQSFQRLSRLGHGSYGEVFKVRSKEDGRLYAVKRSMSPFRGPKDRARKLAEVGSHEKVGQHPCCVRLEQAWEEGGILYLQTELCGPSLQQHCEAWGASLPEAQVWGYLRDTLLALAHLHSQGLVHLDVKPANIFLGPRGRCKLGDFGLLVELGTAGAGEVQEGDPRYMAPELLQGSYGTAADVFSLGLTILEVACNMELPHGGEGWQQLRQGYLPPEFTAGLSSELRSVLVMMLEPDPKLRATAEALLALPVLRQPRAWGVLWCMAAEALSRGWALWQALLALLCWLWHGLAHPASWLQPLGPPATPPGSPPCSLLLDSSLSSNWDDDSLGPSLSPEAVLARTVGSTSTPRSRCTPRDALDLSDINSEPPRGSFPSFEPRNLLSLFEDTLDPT
UniProt Q99523, sequence (whole entry, looked up): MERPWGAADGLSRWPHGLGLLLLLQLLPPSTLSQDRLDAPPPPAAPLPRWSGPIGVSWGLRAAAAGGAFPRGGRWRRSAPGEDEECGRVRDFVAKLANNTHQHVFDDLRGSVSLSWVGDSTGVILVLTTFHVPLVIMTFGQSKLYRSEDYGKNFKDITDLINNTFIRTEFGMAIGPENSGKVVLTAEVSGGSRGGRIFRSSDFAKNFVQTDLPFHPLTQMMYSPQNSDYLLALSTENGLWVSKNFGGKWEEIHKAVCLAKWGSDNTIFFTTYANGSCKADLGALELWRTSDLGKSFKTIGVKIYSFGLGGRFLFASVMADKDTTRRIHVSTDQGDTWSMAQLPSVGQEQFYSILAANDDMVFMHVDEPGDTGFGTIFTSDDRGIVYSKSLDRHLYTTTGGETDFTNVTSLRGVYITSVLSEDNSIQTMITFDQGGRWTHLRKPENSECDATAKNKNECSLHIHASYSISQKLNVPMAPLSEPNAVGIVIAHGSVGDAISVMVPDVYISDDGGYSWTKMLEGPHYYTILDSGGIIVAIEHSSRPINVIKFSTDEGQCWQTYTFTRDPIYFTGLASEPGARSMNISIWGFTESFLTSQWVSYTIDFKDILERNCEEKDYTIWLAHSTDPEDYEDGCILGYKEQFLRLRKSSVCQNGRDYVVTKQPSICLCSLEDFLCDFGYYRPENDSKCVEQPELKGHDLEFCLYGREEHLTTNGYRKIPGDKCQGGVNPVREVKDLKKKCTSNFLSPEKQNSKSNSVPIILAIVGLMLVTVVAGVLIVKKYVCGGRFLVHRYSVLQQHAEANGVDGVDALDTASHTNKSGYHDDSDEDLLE
UniProt Q99714, sequence (whole entry, looked up): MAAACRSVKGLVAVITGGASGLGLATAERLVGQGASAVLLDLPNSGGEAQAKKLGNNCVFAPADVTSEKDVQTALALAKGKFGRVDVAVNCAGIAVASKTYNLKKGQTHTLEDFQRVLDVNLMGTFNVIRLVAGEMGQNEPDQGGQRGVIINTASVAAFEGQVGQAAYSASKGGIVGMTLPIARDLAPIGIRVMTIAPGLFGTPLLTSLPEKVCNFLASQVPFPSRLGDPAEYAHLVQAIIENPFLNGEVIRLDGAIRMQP

SMILES | tested on | assay | test system | conditions | how to read | measurement | result
OC(Cn1cncn1)(Cn1cncn1)c1ccc(F)cc1F | CYP17A1 lyase | androgen synthesis | – | – | – | IC50 | 114 to 209 µM
CC(C)NC(=O)[C@H]1CCC[C@H]1Nc1nc(Nc2ccc(C(=O)N(C)C3CCN(C)CC3)cc2)ncc1C(F)(F)F | Aurora kinase B (AURKB, Homo sapiens, UniProt Q96GD4) | kinase activity, inhibitor | – | – | – | IC50 | 0.009 µM
O=C(O)c1cc(O)c2c(c1)C(=O)c1cc(O)cc(O)c1C2=O | MAOB (Homo sapiens, UniProt P27338) | – | – | – | – | IC50 | 54.7 ± 0.74 µM
Nc1cc(C(F)(F)F)c(-c2nc(N3CCOCC3)nc(N3CCOCC3)n2)cn1 | PKMYT1 (Homo sapiens, UniProt Q99640) | enzyme activity | – | 10 µM | baseline: untreated | remaining activity | 66%
Oc1ccc([C@H]2Oc3cc(O)cc4c3[C@@H]2c2cc(O)cc3c2[C@@H](c2cc(O)cc5c2[C@@H]4[C@H](c2ccc(O)cc2)O5)[C@H](c2ccc(O)cc2)O3)cc1 | alpha-amylase (porcine pancreas) | starch-iodine | – | with: starch | – | IC50 | 4.8 µM
Cc1cc(-c2nc3cnc(C4CCOCC4)cc3n2[C@@H](C)c2ccccc2)nn(C)c1=O | Bromodomain-containing protein 4, BD1 (BRD4, Homo sapiens, UniProt O60885) | biochemical | – | bromodomain 1 | – | IC50 | 0.008 µM
COc1ccc(C[C@H](N)C(=O)N[C@H]2[C@@H](O)[C@H](n3cnc4c(N(C)C)ncnc43)O[C@@H]2CO)cc1 | neuron-specific aminopeptidase (NAP) | enzyme activity, inhibitor | – | – | – | IC50 | 1 µM
O=c1c(O)c(-c2ccc(O)c(O)c2)oc2cc(O)cc(O)c12 | sortase A, Staphylococcus aureus | inhibitor | – | – | – | IC50 | 157 µM
CC(C)CCN[C@@H]1CCc2cc(O)c(N3CC(=O)NS3(=O)=O)c(F)c2C1 | PTPN1 (Homo sapiens, UniProt P18031) | enzyme activity, inhibitor, in vitro | – | – | – | IC50 | 0.0018 µM
Oc1ccc(O)cc1 | tyrosinase | inhibitor | – | – | – | IC50 | 25.9 µM
Cc1ccc(S(=O)(=O)c2ncccc2[N+](=O)[O-])cc1 | thioredoxin reductase 1 | enzyme activity | – | – | – | IC50 | 0.75 µM
C=C(C)[C@H](CC=C(C)C)Cc1c(O)cc(OC)c(C(=O)/C=C/c2ccc(O)cc2O)c1O | tyrosinase | inhibitor | – | – | – | IC50 | 0.6 µM
COCC(=O)N1CCC[C@H](C(=O)NCc2nc(-c3ccc(OC)cc3)cs2)C1 | PSMB1/PSMB5/PSMB3 | enzyme activity, inhibitor | – | – | – | IC50 | > 30 µM
C=C(C)[C@H](CC=C(C)C)Cc1c(O)cc(O)c2c1O[C@H](c1ccc(O)cc1O)CC2=O | tyrosinase | inhibitor | – | – | – | IC50 | 6.6 µM
Cn1cc(C2=C(c3cn(CCCSC(=N)N)c4ccccc34)C(=O)NC2=O)c2ccccc21 | RPS6KA3 | kinase activity, inhibitor | – | – | – | IC50 | 0.036 µM
Cc1ccc2c(c1)C(=O)[C@]1(O)CCN(c3ccccc3)C1=N2 | Myosin-7 (MYH7, Bos taurus, UniProt Q9BE39) | – | – | published range | – | IC50 | 0.4 to 30 µM
C#CCOc1ccccc1CCCCCC(=O)O | CYP2C9 | inhibitor | – | – | – | IC50 | 23 µM
O=C(O)[C@H]1O[C@@H](Oc2c(O)cc(O)c3c(=O)c(O)c(-c4ccc(O)c(O)c4)oc23)[C@H](O)[C@@H](O)[C@@H]1O | sortase A, Staphylococcus aureus | inhibitor | – | – | – | IC50 | 31.2 µg/mL
O=C1NN(c2cccc(Cl)c2)C(=O)C1=Cc1ccc(-c2ccc(C(=O)O)c(Cl)c2)o1 | KEAP1 NRF2-binding domain | – | – | – | – | IC50 | 15.2 µM
C#CCOc1ccccc1CCCCCC(=O)NS(C)(=O)=O | CYP2C8 | inhibitor | – | – | – | IC50 | 15 µM
Oc1ccc(/C=C/c2cc(O)cc(O)c2)cc1 | tyrosinase | inhibitor | – | – | – | IC50 | 7.2 µM
COc1cc(N)c(Cl)cc1NC(=O)Nc1cnc(C#N)cn1 | CHEK1 (Homo sapiens, UniProt O14757) | inhibitor | – | – | – | IC50 | 0.005 µM
O=C(C(c1ccccc1)n1cnc2[nH]ncc2c1=S)N1CCCCCC1 (stereo not shown) | HSD17B10 (Homo sapiens, UniProt Q99714) | enzyme activity, inhibitor | – | – | – | IC50 | 0.092 µM

SMILES | tested on | assay | test system | conditions | how to read | measurement | result
O=C(O)c1cc(O)c(O)c(O)c1 | tyrosinase | inhibitor | – | – | – | IC50 | > 100 µM
Cc1nc2cc(C(=O)N(C)C)cc(O[C@H]3CCOc4cc(F)cc(F)c43)c2[nH]1 | H+/K+-ATPase | enzyme activity, inhibitor | – | – | – | IC50 | 0.13 µM
C[N+]1(C)CCC(OC(=O)C(c2ccccc2)c2ccccc2)CC1 | CHRM1 (Homo sapiens, UniProt P11229) | inhibitor, radioligand binding | – | – | – | IC50 | 0.0045 µM
COc1cc(/C=C/C(=O)NCCc2c[nH]c3ccc(O)cc23)ccc1O | tyrosinase | inhibitor | – | – | – | IC50 | 23 µM
N=C(N)c1ccc(N=Nc2c(O)ccc3cc(O)ccc23)cc1 | RPS6KA3 | enzyme activity, inhibitor | – | – | – | IC50 | 1 µM
COCC(=O)N1CCC[C@H](C(=O)NCc2nc(-c3ccccc3)cs2)C1 | PSMB1/PSMB5/PSMB3 | enzyme activity, inhibitor | – | – | – | IC50 | > 30 µM
CNC(C)C1CCC(N)C(OC2C(N)CC(N)C(OC3OCC(C)(O)C(NC)C3O)C2O)O1 (stereo not shown) | Enterobacter cloacae | – | clinical isolate RKI-No_76/15 | – | – | MIC | ≤ 0.5 µg/mL
CCn1cc(-c2ccnc3[nH]c(-c4cccc(CN(C)C)c4)cc23)c(-c2ccc(NC(=O)N(C)C)cc2)n1 | Aurora kinase C (AURKC, Homo sapiens, UniProt Q9UQB9) | kinase activity, inhibitor | – | – | – | IC50 | 0.0015 µM
CC1(C)S[C@@H]2[C@H](NC(=O)[C@H](N)c3ccccc3)C(=O)N2[C@H]1C(=O)O | Enterobacter cloacae | – | clinical isolate RKI-No_37/14 | – | – | MIC | > 16 µg/mL
COc1cc(N2CCC3(CCN(C)CC3)CC2)ccc1Nc1ncc(Cl)c(Nc2ccccc2P(C)(C)=O)n1 | EGFR L858R/T790M | – | – | – | – | IC50 | 0.0167 µM
COc1ccc(CNc2c(CO)cnc3c(C4CC4)cc(C#N)cc23)cc1Cl | PDE9A (Homo sapiens, UniProt O76083) | – | – | – | – | IC50 | > 10 µM
O=C(O)CNC(=O)C(CS)Cc1ccccc1 (stereo not shown) | Aminopeptidase N (ANPEP, Homo sapiens, UniProt P15144) | – | – | – | – | IC50 | > 100 µM
CC(C)[C@H](NC(=O)[C@H](CCCNC(=N)N)NC(=O)N[C@@H](Cc1ccccc1)C(=O)O)C(=O)N[C@H](C=O)CCCNC(=N)N | Cathepsin B (CTSB, Homo sapiens, UniProt P07858) | – | – | literature value | – | IC50 | 0.48 µM
O=C(O)c1cc(O)c(O)c(OC(=O)c2cc(O)c(O)c(O)c2)c1 | tyrosinase | inhibitor | – | – | – | IC50 | > 100 µM
O=C(/C=C/c1ccccc1)c1ccccc1 | sortase A, Staphylococcus aureus | inhibitor | – | – | – | IC50 | 53.1 µM
CN(C)CCC=C1c2ccccc2CCc2ccccc21 | sigma 1 receptor | – | – | – | – | IC50 | 0.287 µM
Clc1ccc(COC(Cn2ccnc2)c2ccc(Cl)cc2Cl)c(Cl)c1 (stereo not shown) | CYP2C9 | inhibitor | – | – | – | IC50 | 2.4 µM
O=C1c2c(O)cc(O)cc2OCC1c1ccc(O)cc1O (stereo not shown) | tyrosinase | inhibitor | – | – | – | IC50 | 20 ± 3.5 µM
C=C1CN(S(=O)(=O)c2ccc(C)cc2)CCCN(Cc2ccccc2)CCCN(S(=O)(=O)c2ccc(C)cc2)C1 | Sortilin (Homo sapiens, UniProt Q99523) | protein down-modulation, degrader | – | – | – | IC50 | 5.6 µM
O=C1O[C@H]2[C@@H]3OC(=O)c4cc(O)c(O)c(O)c4-c4c(O)c(O)c5oc(=O)c6c(c(O)c(O)c7oc(=O)c4c5c76)-c4c(cc(O)c(O)c4O)C(=O)OC[C@H]3OC(O)[C@@H]2OC(=O)c2cc(O)c(O)c(O)c2-c2c1cc(O)c(O)c2O (mixture of isomers) | sortase A, Staphylococcus aureus | inhibitor | – | – | – | IC50 | 4.23 µg/mL
CC(C)=CCc1cc2c(cc1O)O[C@H](c1ccc(O)cc1)CC2=O | cholesterol acyltransferase | inhibitor | – | – | – | IC50 | 86 µM
OC(Cn1cncn1)(Cn1cncn1)c1ccc(F)cc1F | CYP2C8 | inhibitor | – | – | – | IC50 | > 200 µM
C[C@@]12C(=O)OC(=O)[C@]1(C)[C@H]1CC[C@@H]2O1 | protein phosphatase 2A | enzyme activity, inhibitor | – | – | – | IC50 | 0.04 µM

Some of these lines once more:
SMILES | tested on | assay | test system | conditions | how to read | measurement | result
O=C1NN(c2cccc(Cl)c2)C(=O)C1=Cc1ccc(-c2ccc(C(=O)O)c(Cl)c2)o1 | KEAP1 NRF2-binding domain | – | – | – | – | IC50 | 15.2 µM
O=C(O)c1cc(O)c(O)c(OC(=O)c2cc(O)c(O)c(O)c2)c1 | tyrosinase | inhibitor | – | – | – | IC50 | > 100 µM
COCC(=O)N1CCC[C@H](C(=O)NCc2nc(-c3ccccc3)cs2)C1 | PSMB1/PSMB5/PSMB3 | enzyme activity, inhibitor | – | – | – | IC50 | > 30 µM
Cc1ccc2c(c1)C(=O)[C@]1(O)CCN(c3ccccc3)C1=N2 | Myosin-7 (MYH7, Bos taurus, UniProt Q9BE39) | – | – | published range | – | IC50 | 0.4 to 30 µM
C=C(C)[C@H](CC=C(C)C)Cc1c(O)cc(O)c2c1O[C@H](c1ccc(O)cc1O)CC2=O | tyrosinase | inhibitor | – | – | – | IC50 | 6.6 µM
COCC(=O)N1CCC[C@H](C(=O)NCc2nc(-c3ccc(OC)cc3)cs2)C1 | PSMB1/PSMB5/PSMB3 | enzyme activity, inhibitor | – | – | – | IC50 | > 30 µM
CCn1cc(-c2ccnc3[nH]c(-c4cccc(CN(C)C)c4)cc23)c(-c2ccc(NC(=O)N(C)C)cc2)n1 | Aurora kinase C (AURKC, Homo sapiens, UniProt Q9UQB9) | kinase activity, inhibitor | – | – | – | IC50 | 0.0015 µM
